Measurements of several laboratories.
Numbered parts are unrelated; each lists some results of a single study.
UniProt P07948, sequence (whole entry, looked up): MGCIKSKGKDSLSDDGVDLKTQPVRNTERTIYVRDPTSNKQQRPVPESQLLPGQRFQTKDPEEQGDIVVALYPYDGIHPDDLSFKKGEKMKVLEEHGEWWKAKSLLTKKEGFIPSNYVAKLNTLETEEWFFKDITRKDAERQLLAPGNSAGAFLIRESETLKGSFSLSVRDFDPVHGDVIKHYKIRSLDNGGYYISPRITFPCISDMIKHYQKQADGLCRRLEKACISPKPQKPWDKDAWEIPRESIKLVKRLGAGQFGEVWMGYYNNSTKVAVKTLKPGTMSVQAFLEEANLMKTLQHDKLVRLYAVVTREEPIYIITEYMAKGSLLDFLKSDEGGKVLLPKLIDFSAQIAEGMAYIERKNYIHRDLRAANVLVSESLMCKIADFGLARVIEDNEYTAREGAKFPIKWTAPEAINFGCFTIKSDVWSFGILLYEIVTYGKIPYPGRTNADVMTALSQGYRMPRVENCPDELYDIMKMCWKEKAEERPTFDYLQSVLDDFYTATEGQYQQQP
UniProt Q9UIK4, sequence (whole entry, looked up): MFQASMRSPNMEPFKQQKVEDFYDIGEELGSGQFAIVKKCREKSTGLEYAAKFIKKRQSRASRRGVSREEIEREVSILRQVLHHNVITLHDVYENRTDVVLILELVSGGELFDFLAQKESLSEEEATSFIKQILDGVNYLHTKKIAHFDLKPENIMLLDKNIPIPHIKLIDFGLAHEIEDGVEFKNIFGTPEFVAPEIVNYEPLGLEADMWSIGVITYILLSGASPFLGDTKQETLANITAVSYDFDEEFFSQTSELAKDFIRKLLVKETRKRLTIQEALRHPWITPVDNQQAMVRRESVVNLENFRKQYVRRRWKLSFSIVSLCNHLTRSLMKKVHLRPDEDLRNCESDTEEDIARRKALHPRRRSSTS
UniProt P0C1S8, sequence (whole entry, looked up): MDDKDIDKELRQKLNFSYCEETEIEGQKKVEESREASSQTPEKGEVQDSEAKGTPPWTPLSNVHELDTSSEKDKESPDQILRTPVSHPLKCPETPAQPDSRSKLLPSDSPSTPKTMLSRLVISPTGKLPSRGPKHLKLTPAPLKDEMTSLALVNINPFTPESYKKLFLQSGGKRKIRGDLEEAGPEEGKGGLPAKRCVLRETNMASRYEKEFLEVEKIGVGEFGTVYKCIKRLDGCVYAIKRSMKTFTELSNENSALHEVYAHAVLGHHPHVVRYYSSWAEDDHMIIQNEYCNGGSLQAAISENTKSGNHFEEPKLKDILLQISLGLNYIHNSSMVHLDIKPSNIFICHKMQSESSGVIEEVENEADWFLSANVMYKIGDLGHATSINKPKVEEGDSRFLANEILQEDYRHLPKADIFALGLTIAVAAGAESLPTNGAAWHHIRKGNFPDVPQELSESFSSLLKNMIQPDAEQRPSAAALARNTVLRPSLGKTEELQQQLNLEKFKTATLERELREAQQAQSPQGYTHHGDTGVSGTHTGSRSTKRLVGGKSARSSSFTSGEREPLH
UniProt Q96L34, sequence (whole entry, looked up): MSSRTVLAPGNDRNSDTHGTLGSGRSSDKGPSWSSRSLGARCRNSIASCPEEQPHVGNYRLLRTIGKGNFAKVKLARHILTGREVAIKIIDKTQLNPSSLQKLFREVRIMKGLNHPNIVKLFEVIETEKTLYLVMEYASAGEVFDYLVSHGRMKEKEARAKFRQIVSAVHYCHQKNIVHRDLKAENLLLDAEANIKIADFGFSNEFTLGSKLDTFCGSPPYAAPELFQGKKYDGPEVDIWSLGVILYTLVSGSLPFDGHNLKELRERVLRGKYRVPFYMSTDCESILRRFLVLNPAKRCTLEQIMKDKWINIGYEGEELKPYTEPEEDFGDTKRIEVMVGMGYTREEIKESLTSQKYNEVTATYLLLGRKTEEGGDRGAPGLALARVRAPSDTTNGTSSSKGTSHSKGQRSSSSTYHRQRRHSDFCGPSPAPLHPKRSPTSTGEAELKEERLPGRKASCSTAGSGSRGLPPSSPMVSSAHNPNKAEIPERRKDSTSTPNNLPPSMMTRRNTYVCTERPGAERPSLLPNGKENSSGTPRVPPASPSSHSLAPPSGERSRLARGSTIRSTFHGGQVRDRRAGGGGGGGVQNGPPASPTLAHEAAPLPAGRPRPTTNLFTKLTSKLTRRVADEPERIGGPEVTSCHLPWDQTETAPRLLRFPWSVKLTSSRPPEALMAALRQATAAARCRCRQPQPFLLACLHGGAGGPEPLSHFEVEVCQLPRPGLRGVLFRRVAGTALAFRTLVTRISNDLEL
UniProt O43683, sequence (whole entry, looked up): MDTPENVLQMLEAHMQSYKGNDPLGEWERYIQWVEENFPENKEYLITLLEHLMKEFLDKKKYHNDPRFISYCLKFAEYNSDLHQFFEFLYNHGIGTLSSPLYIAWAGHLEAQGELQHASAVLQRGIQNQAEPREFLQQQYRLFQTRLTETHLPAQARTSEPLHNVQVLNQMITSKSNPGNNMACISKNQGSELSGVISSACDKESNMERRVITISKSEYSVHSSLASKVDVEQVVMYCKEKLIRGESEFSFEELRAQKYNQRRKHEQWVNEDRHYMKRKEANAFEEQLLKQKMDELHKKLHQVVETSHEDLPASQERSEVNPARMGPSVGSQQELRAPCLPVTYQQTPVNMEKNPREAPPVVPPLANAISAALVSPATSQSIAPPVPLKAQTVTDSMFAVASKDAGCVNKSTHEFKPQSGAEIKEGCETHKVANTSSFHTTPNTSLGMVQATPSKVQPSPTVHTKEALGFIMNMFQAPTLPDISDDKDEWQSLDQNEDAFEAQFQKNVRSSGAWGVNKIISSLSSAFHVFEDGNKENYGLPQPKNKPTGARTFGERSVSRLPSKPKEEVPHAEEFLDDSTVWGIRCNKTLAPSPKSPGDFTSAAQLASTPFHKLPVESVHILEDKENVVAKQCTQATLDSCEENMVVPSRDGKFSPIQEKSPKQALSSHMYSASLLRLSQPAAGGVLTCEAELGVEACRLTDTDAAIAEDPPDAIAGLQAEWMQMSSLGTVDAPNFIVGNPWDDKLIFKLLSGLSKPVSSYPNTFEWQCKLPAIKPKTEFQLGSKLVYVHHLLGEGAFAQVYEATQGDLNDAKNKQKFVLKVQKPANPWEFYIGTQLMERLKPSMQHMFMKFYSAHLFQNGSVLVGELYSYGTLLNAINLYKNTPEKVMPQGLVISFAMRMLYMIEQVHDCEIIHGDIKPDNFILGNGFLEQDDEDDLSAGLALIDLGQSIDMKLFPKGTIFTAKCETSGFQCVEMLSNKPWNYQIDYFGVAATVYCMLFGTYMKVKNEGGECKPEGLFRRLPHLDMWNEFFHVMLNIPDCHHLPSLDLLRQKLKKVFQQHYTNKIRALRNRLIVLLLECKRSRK
UniProt Q13557, sequence (whole entry, looked up): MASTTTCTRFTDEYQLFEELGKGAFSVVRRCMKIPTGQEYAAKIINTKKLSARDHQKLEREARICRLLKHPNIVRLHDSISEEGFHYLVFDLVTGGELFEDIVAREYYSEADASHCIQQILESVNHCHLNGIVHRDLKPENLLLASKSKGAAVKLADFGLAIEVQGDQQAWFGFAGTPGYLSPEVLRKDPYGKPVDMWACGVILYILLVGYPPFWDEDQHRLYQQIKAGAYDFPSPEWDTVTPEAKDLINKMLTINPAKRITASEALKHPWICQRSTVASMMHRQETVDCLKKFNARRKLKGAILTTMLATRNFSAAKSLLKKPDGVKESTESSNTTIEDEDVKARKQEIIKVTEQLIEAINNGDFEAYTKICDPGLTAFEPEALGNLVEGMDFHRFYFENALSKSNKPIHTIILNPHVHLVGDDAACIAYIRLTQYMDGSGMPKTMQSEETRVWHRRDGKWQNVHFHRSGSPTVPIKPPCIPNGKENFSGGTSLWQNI
UniProt P45984, sequence (whole entry, looked up): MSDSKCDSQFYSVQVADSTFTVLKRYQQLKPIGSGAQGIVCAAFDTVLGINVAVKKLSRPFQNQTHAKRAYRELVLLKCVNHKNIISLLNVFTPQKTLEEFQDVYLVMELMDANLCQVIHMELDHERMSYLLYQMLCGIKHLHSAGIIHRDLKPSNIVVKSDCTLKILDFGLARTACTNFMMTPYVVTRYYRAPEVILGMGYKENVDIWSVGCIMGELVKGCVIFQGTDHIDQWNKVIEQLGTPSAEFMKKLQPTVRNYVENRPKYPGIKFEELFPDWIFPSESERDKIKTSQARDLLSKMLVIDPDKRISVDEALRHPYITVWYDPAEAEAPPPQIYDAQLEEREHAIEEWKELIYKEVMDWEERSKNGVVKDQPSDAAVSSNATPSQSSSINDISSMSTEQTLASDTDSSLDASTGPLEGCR
UniProt P51955, sequence (whole entry, looked up): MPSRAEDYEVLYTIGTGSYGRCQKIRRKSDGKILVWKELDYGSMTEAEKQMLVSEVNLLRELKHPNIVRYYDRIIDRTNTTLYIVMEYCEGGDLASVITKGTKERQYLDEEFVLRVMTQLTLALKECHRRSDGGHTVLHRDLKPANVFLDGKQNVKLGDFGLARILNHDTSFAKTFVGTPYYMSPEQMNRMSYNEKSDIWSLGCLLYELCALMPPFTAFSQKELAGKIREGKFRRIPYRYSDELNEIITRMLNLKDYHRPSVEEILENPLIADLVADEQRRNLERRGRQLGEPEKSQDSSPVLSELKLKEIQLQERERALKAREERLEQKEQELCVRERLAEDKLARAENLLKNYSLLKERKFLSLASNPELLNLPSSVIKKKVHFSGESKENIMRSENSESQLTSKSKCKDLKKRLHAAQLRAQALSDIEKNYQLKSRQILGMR
UniProt O75388, sequence (whole entry, looked up): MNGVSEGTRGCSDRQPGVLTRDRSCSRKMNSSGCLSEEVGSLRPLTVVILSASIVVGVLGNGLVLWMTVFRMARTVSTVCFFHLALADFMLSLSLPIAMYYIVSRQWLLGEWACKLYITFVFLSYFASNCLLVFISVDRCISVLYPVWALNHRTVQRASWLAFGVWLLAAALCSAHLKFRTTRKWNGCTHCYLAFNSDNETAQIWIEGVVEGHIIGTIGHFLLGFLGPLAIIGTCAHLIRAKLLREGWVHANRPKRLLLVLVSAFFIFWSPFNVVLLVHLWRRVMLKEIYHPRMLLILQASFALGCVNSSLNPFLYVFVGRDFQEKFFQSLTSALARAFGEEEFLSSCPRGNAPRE

Study 1
SMILES: CCN(c1nc(N)c(C(=O)N=C(N)N)nc1Cl)C(C)C
Action: agonist
Concentration: 10 µM
Relative to: untreated
It gave 1.27 for “fold over basal” (GPR32 (Homo sapiens, UniProt O75388); β-arrestin recruitment, PRESTO-Tango).
For Metabotropic glycine receptor (GPR158, Homo sapiens, UniProt Q5T848); β-arrestin recruitment, PRESTO-Tango: “fold over basal” read 0.82.
The “fold over basal” was 0.85 fold (HCRTR2 (Homo sapiens, UniProt O43614); β-arrestin recruitment, PRESTO-Tango).
The “fold over basal” was 1.19 (Probable G-protein coupled receptor 148 (GPR148, Homo sapiens, UniProt Q8TDV2); β-arrestin recruitment, PRESTO-Tango).
For Nociceptin receptor (OPRL1, Homo sapiens, UniProt P41146); PRESTO-Tango arrestin recruitment: “fold over basal” read 1.46.
The “fold over basal” was 0.44 (S1PR5 (Homo sapiens, UniProt Q9H228); β-arrestin recruitment, PRESTO-Tango).
For Mas-related G-protein coupled receptor member X3 (Homo sapiens, UniProt Q96LB0); β-arrestin recruitment, PRESTO-Tango: “fold over basal” read 0.95.
GPR39 (Homo sapiens, UniProt O43194); β-arrestin recruitment, PRESTO-Tango — “fold over basal”: 0.89.

Study 2
Cell line: HaCaT
Concentration: 100 µM
Time: 36 h
`COc1cc(OC)c(C(=O)CCCN2CCCC2)c(OC)c1` gave a viability of 98.2%.
For `CCCCCCNC(=O)n1cc(F)c(=O)[nH]c1=O`, the viability was 42.8%.
`CC(C)(C(=O)c1cccnc1)c1cccnc1` gave a viability of 77.4%.
For `c1ccc2c(c1)CCCC2C1=NCCN1` (stereo not drawn), the viability was 43.8%.
`CC(C)C[C@H](NC(=O)[C@H](Cc1ccccc1)NC(=O)c1cnccn1)B(O)O` gave a viability of 5.95%.
`Nc1nccs1` gave a viability of 90.3%.
For `COc1ccccc1OCC(O)COC(N)=O` (stereo not drawn), the viability was 98.3%.
`O=c1oc2cc(O)ccc2s1` has a viability of 96.8%.
The viability of `O=c1oc2ccccc2c(O)c1Cc1c(O)c2ccccc2oc1=O` is reported as 35.5%.
The viability of `CC(=O)Oc1cc(C(C)C)c(OCCN(C)C)cc1C` is reported as 87.5%.
`CCCCc1oc2ccc(NS(C)(=O)=O)cc2c1C(=O)c1ccc(OCCCN(CCCC)CCCC)cc1` has a viability of 6.27%.
`NNC(=O)c1ccncc1` has a viability of 88.1%.
`C=CCc1ccc(O)c(-c2cc(CC=C)ccc2O)c1` has a viability of 4.81%.
`COc1c2occc2c(OC)c2c(=O)cc(C)oc12` gave a viability of 45.7%.
`COc1ccc(-c2cc(=O)c3c(O)cc(O[C@@H]4O[C@H](CO[C@@H]5O[C@@H](C)[C@H](O)[C@@H](O)[C@H]5O)[C@@H](O)[C@H](O)[C@H]4O)cc3o2)cc1O` gave a viability of 97.3%.

Study 3
SMILES: C[C@H](c1ccnc(Nc2nc3ccc(-c4cc(N(C)C)ncn4)cc3[nH]2)c1)N1CCN(C(=O)CC(F)(F)F)CC1
Method: competition with immobilised ligand
Concentration: 0.1 µM
It gave 100% for remaining binding (MAK (Homo sapiens, UniProt P20794); binding).
PIK3CA (Homo sapiens, UniProt P42336, H1047Y); cell-free assay — remaining binding: 100%.
The remaining binding was 71% (RIPK2 (Homo sapiens, UniProt O43353); cell-free assay).
It gave 100% for remaining binding (ALK (Homo sapiens, UniProt Q9UM73, C1156Y); cell-free assay).
It gave 100% for remaining binding (MAP3K1 (Homo sapiens, UniProt Q13233); cell-free assay).
Ribosomal protein S6 kinase alpha-6, N-terminal kinase domain (RPS6KA6, Homo sapiens, UniProt Q9UK32); cell-free assay — remaining binding: 97%.
It gave 89% for remaining binding (Tyrosine-protein kinase ABL1, non-phosphorylated (ABL1, Homo sapiens, UniProt P00519); cell-free assay).
The remaining binding was 100% (MARK4 (Homo sapiens, UniProt Q96L34); cell-free assay).
WEE2 (Homo sapiens, UniProt P0C1S8); cell-free assay — remaining binding: 98%.
For FLT1 (Homo sapiens, UniProt P17948); cell-free assay: remaining binding read 100%.
CSNK1G2 (Homo sapiens, UniProt P78368); cell-free assay — remaining binding: 96%.
It gave 96% for remaining binding (TNIK (Homo sapiens, UniProt Q9UKE5); cell-free assay).
It gave 100% for remaining binding (LRRK2 (Homo sapiens, UniProt Q5S007, G2019S); cell-free assay).
It gave 86% for remaining binding (MKNK2 (Homo sapiens, UniProt Q9HBH9); cell-free assay).
LCK (Homo sapiens, UniProt P06239); cell-free assay — remaining binding: 100%.
HUNK (Homo sapiens, UniProt P57058); cell-free assay — remaining binding: 95%.
The remaining binding was 100% (EGFR (Homo sapiens, UniProt P00533, L858R/T790M); cell-free assay).
CILK1 (Homo sapiens, UniProt Q9UPZ9); binding — remaining binding: 88%.
The remaining binding was 95% (BUB1 (Homo sapiens, UniProt O43683); cell-free assay).
The remaining binding was 100% (KDR (Homo sapiens, UniProt P35968); cell-free assay).
MAP2K1 (Homo sapiens, UniProt Q02750); cell-free assay — remaining binding: 99%.
For TSSK3 (Homo sapiens, UniProt Q96PN8); cell-free assay: remaining binding read 74%.
MAP4K3 (Homo sapiens, UniProt Q8IVH8); cell-free assay — remaining binding: 100%.

Study 4
Structure (SMILES): Oc1ccc(Nc2nc(-c3ccc(Cl)cc3)cs2)cc1
Observed: enzyme activity
Action: inhibitor
Concentration: 0.5 µM
Relative to: control
For DAPK1 (Homo sapiens, UniProt P53355): remaining activity read 101%.
MAP3K3 (Homo sapiens, UniProt Q99759) — remaining activity: 101%.
It gave 91.1% for remaining activity (STK11 (Homo sapiens, UniProt Q15831)).
For IKBKB (Homo sapiens, UniProt O14920): remaining activity read 104%.
It gave 108% for remaining activity (Cyclin-dependent kinase 4, with cyclin D1 (CDK4, Homo sapiens, UniProt P11802)).
For NEK2 (Homo sapiens, UniProt P51955): remaining activity read 110%.
The remaining activity was 96.6% (STK10 (Homo sapiens, UniProt O94804)).
For PRKACA (Homo sapiens, UniProt P17612): remaining activity read 105%.
It gave 98.3% for remaining activity (MAPK9 (Homo sapiens, UniProt P45984)).
It gave 95.9% for remaining activity (IKBKE (Homo sapiens, UniProt Q14164)).
For Cyclin-dependent kinase 5, with p25 (CDK5, Homo sapiens, UniProt Q00535): remaining activity read 85.9%.
CAMK2D (Homo sapiens, UniProt Q13557) — remaining activity: 98.8%.
The remaining activity was 94.1% (cGMP-dependent protein kinase 1, isoform beta (PRKG1, Homo sapiens, UniProt Q13976)).
For TGFBR1 (Homo sapiens, UniProt P36897): remaining activity read 99.9%.
GRK3 (Homo sapiens, UniProt P35626) — remaining activity: 97.6%.
For STK39 (Homo sapiens, UniProt Q9UEW8): remaining activity read 94.2%.
For Tyrosine-protein kinase Lyn, isoform B (LYN, Homo sapiens, UniProt P07948): remaining activity read 100%.
For CHEK2 (Homo sapiens, UniProt O96017): remaining activity read 97.9%.
For DAPK2 (Homo sapiens, UniProt Q9UIK4): remaining activity read 107%.
The remaining activity was 88.8% (OXSR1 (Homo sapiens, UniProt O95747)).
For PRKCA (Homo sapiens, UniProt P17252): remaining activity read 113%.
It gave 101% for remaining activity (Protein kinase C beta type, isoform beta-I (PRKCB, Homo sapiens, UniProt P05771)).
The remaining activity was 112% (TGFBR2 (Homo sapiens, UniProt P37173)).

Excerpt of the above (study 3):
Ribosomal protein S6 kinase alpha-6, N-terminal kinase domain (RPS6KA6, Homo sapiens, UniProt Q9UK32); cell-free assay — remaining binding: 97%.
It gave 89% for remaining binding (Tyrosine-protein kinase ABL1, non-phosphorylated (ABL1, Homo sapiens, UniProt P00519); cell-free assay).
The remaining binding was 100% (MARK4 (Homo sapiens, UniProt Q96L34); cell-free assay).
WEE2 (Homo sapiens, UniProt P0C1S8); cell-free assay — remaining binding: 98%.
For FLT1 (Homo sapiens, UniProt P17948); cell-free assay: remaining binding read 100%.
CSNK1G2 (Homo sapiens, UniProt P78368); cell-free assay — remaining binding: 96%.
It gave 96% for remaining binding (TNIK (Homo sapiens, UniProt Q9UKE5); cell-free assay).
It gave 100% for remaining binding (LRRK2 (Homo sapiens, UniProt Q5S007, G2019S); cell-free assay).
It gave 86% for remaining binding (MKNK2 (Homo sapiens, UniProt Q9HBH9); cell-free assay).
LCK (Homo sapiens, UniProt P06239); cell-free assay — remaining binding: 100%.
HUNK (Homo sapiens, UniProt P57058); cell-free assay — remaining binding: 95%.
